Measurements gathered from unrelated publications.
Lines come from different studies, so protocols differ. ± marks the error that the study gave.

CC[C@@H](C)[C@@H](NC(=O)[C@@H](CC(C)C)NC(=O)[C@@H](CCCCN)NC(=O)[C@@H](CC(C)C)NC(=O)[C@@H](CC(C)C)NC(=O)[C@H](NC(=O)[C@@H](Cc1c[nH]cn1)NC(=O)[C@@H](CC(C)C)NC(=O)[C@@H](CCCCN)NC(=O)[C@H](NC(=O)[C@@H](CCCCN)NC(=O)[C@@H](CCCCN)NC(=O)[C@@H](CC(C)C)NC(=O)[C@@H](CO)NC(=O)[C@@H](CCCCN)NC(=O)[C@@H](Cc1ccccc1)NC(=O)[C@H](NC(=O)[C@@H](CCCCN)NC(=O)[C@@H](CC(C)C)NC(=O)[C@@H](Cc1ccccc1)NC(=O)[C@@H](CO)NC(=O)[C@@H](CCCCN)NC(=O)[C@@H](Cc1c[nH]c2ccccc12)NC(=O)[C@@H](CCCCN)NC(C)=O)[C@H](C)O)[C@H](C)O)[C@H](C)O)C(=O)N[C@H](CO)C(=O)N[C@H](CO)C(N)=O — mean residue ellipticity (circular dichroism; buffer with 50% TFE; 5 °C, at 222 nm): 35500 deg cm²/dmol
CCc1cc(Nc2nc(-c3ccc(-n4cnc(C)c4)c(F)c3)cs2)c(C)cc1C — apparent clearance (CL/F) (human, plasma; oral, 400 mg, day 1, multiple dose, geometric mean): 30400 mL/h
CCCC(CCC(=O)O)NC(=O)c1ccc2c(c1)OCO2 (centres unmarked) — peak area (LC-MS extracted ion chromatogram; Sprague-Dawley rat, male and female, pooled plasma; oral, 200 mg/kg, 1 h): 1.35e+06 cps
CCCC[C@H](NC(=O)[C@H](CC(C)C)N(C)C(=O)CNC(=O)[C@@H](NC(=O)[C@H](Cc1ccccc1)NC(=O)[C@H](CCCCN)NC(=O)[C@@H](N)CC(=O)O)C(C)C)C(N)=O — heart rate (anesthetized Gottingen minipig; subcutaneous, 1 µg/kg; relative to: baseline): -1.68 ± 2.02%
CCCC[C@H](NC(C)=O)C(=O)N[C@H]1CC(=O)NCCCC[C@@H](C(=O)N[C@@H](C(=O)N2CCC[C@@H]2C(N)=O)C(C)C)NC(=O)[C@H](Cc2c[nH]c3ccccc23)NC(=O)[C@H](CCCN=C(N)N)NC(=O)[C@@H](Cc2ccc3ccccc3c2)NC(=O)[C@@H]2CCCN2C1=O — plasma histamine (healthy dogs, plasma; subcutaneous, 2.25 mg/kg per day, day 5, 12 h post-dose, median): 15.9 ng/mL
O=C1CCc2ccc(NS(=O)(=O)c3cccc(Oc4ccccc4)c3)cc2N1 — half-life (C57BL/6 mouse, brain; subcutaneous, 3 mg/kg): 3.53 h
COCCOCCOCCOCCC(=O)NCc1cc(CNC(=O)CCOCCOCCOCCOC)cc(-c2cc3cc4nc(c(-c5ccc(CCC(=O)O)cc5)c5[nH]c(cc6nc(c(OC)c2[nH]3)CC6(C)C)cc5-c2cc(CNC(=O)CCOCCOCCOCCOC)cc(CNC(=O)CCOCCOCCOCCOC)c2)CC4(C)C)c1 — internal conversion yield (water with 5% DMF; room temperature): 0.55
Cc1cc2c(cc1C1(c3ncc(C(=O)O)cn3)CC1)C(C)(C)CCC2(C)C — blood triglycerides (Sprague-Dawley rat, male; oral, 100 mg/kg, 1 h, sesame oil vehicle): 36 ± 6.4 mg/dL
[11CH3]c1ccc2nc(C3CCC3)n(-c3ccc4[nH]ncc4c3)c2n1 — absorbed dose (extrapolated from mouse biodistribution; human female, uterus): 4 µSv/MBq
C=CC(=O)Nc1cc(Nc2nccc(-c3cn(C4CC4)c4ccccc34)n2)c(OC)cc1NC — share of radioactivity (radio-HPLC, co-eluting peaks pooled; human male, urine; oral, 110 mg, 0 to 96 h, sample holds 4.16% dose; relative to: sample radioactivity): 1.7%
CCOc1ccc2c(c1)C(C)=CC(C)(C)N2c1cc(OCC)cc2c1NC(C)(C)C=C2C — residue concentration (LC-MS/MS; piglets, muscle; oral, 50 mg/kg feed of ethoxyquin, 42 days): 31.6 ± 17.5 ng/g
CC1OC2OC3C4=C(OC3(C)C12O)C(=O)c1c(O)cccc1C4=O (centres unmarked) — haemolysis (haemolysis; human; 1.55 mM, 1 h): < 2%
COc1cc2c(cc1OC)CN(CCCCn1ccc3cc(OCC[18F])ccc31)C2 — tracer uptake (male CD-1 mouse, brain; intravenous, 1 h): 1.69 %ID/g
COCC1CN(C2CCN(c3cc(OC)c(Nc4ncc(Br)c(Nc5ccc6c(c5P(C)(C)=O)OCCO6)n4)cc3C)CC2)C1 — treatment-related γ-GTT increased, all grades (human patients; oral, 10 to 240 mg once daily): 11.1%
COCCOCCOCCOc1ccc(/C=C/C2=[N+]3C(=C(c4cc(OC)cc(OC)c4)c4c(C)c(I)c(/C=C/c5ccc(OCCOCCOCCOC)cc5)n4[B-]3(F)F)C(C)=C2I)cc1 — Stokes shift (dichloromethane): 504 cm⁻¹
COC(=O)C(c1ccccc1Cl)N1CCC(SCC(=O)c2cccc(OC)c2)C(=CC(=O)O)C1 (centres unmarked) — measured concentration (LC-MS/MS; processed plasma extract; 50 ng/mL, 8 h, room temperature): 49.6 ± 7.7 ng/mL
COC(=O)C(c1ccccc1Cl)N1CCC(SCC(=O)c2cccc(OC)c2)C(=CC(=O)O)C1 (mixture of isomers) — deviation from nominal (HPLC-MS/MS; feline citrate plasma; 100 ng/mL, 6 h, 4 °C, storage stability): 3%
CC(C)C[C@@H]1NC(=O)[C@@H](Cc2ccccc2)NC(=O)[C@H](CCN)NC(=O)[C@@H](NC(=O)[C@H](CN)NC(=O)[C@@H](NC(=O)C(CCN)Cc2ccc(Cl)cc2)[C@@H](C)O)CCNC(=O)[C@H]([C@@H](C)O)NC(=O)[C@H](CCN)NC(=O)[C@H](CCN)NC1=O (some centres unmarked) — tissue concentration (CD-1 mouse male, kidney; subcutaneous, 17.2 mg/kg, 4 h): 176000 ng/g
O=C(CCc1ccc(CNC(C(=O)OC2CCCC2)C2CCCCC2)cn1)NO (centres unmarked) — AUC(0-t) (human, plasma; oral, 60 mg single dose, geometric mean): 244 ng·h/mL
CC(=O)N([O-])CCCCCNC(=O)CCC(=O)N([O-])CCCCCNC(=O)CCC(=O)N([O-])CCCCCN.[89Zr+4] — intact compound remaining (aqueous solution; 7 d, pH 7.2, 37 °C, transmetalation, together with: FeCl3 100-fold excess): 34%
CCC1(CC)C[C@@H](NC(=O)Nc2cccc3c(C)nccc23)c2cc(F)ccc2O1 — decrease in body temperature (Trpv1+/+ mouse, abdomen; intraperitoneal, 10 mg/kg; relative to: vehicle): > 2 °C
CCN(CC)c1ccc2c(-c3ccc(S(=O)(=O)NCCNC(=O)CN4CCN(CC(=O)[O-])CCN(CC(=O)O)CCN(CC(=O)[O-])CC4)cc3S(=O)(=O)[O-])c3ccc(=[N+](CC)CC)cc-3oc2c1.[64Cu+2] — tumour uptake (athymic nude mice, U-87 MG glioma xenograft; intravenous, 1 h post-injection): 6.91 ± 1.26 %ID/g
CC(C)C[C@@H]1NC(=O)[C@@H]2CCCN2C(=O)[C@H](CO)NC(=O)[C@@H](NC(=O)[C@H](Cc2c[nH]cn2)NC(=O)[C@H](CO)NC(=O)[C@H](Cc2ccc(O)cc2)NC(=O)[C@H](CC(=O)O)NC(=O)CNC(=O)CN2CCN(CC(=O)O)CCN(CC(=O)O)CCN(CC(=O)O)CC2)CSSC[C@@H](C(=O)N[C@H](C(=O)N[C@@H](Cc2ccc(O)cc2)C(=O)N2CCC[C@H]2C(=O)N[C@@H](CC(=O)O)C(=O)N2CCC[C@H]2C(=O)N[C@@H](CCC(=O)O)C(=O)NCC(=O)NCC(=O)NCC(N)=O)[C@@H](C)O)NC(=O)[C@H](CCCCN)NC(=O)[C@H](Cc2c[nH]c3ccccc23)NC(=O)[C@H](Cc2c[nH]c3ccccc23)NC(=O)[C@@H]2CCCN2C(=O)[C@H](Cc2ccc(O)cc2)NC(=O)[C@H](Cc2ccc(O)cc2)NC(=O)[C@H](CCCNC(=N)N)NC1=O [gallium-68 labelled] — SUVmax (PET/CT; male NOD-SCID mice, heart; intravenous, 3.7 MBq, 15 min): 1.15 ± 0.08 SUV
Cn1c(=O)oc2ccc(-c3ccc(CC(C#N)NC(=O)C4CNCCCO4)c(F)c3)cc21 (centres unmarked) — treatment-related adverse event incidence (item: macule; human volunteers; oral, dose not given): 3.3%
C=CC(=O)Nc1cc(Nc2nccc(-c3cn(C4CC4)c4ccccc34)n2)c(OC)cc1N(C)CCNC — share of radioactivity (radio-HPLC, co-eluting peaks pooled; human male, feces; oral, 110 mg, 0 to 240 h, sample holds 81.99% dose; relative to: sample radioactivity): 15%
O=C(O)C1CN(Cc2ccc(-c3noc(-c4ccc(OCC[18F])c(C(F)(F)F)c4)n3)cc2)C1 — tissue uptake (male Sprague-Dawley rat, kidney; intravenous, 30 min): 1.08 %ID/g
CNC(=O)N[C@]1(C)CCC[C@@]2(C)C3CC[C@@]4(C)C[C@]3(CCC21)CC4=O (single isomer, unassigned) — measured concentration (processed rat plasma; 40 ng/mL, 24 h, room temperature, autosampler stability): 44.1 ± 0.59 ng/mL
CC(C)(O)c1ncc([S@](N)(=O)=NC(=O)Nc2c3c(cc4c2CCC4)CCC3)s1 — dose-normalised Cmax (healthy human volunteers, plasma; oral, 300 mg single dose, fasted, spray-dried dispersion): 85.3 ng/mL/mg
O=C(O)[C@@H]1C[C@@H](O)CN1C(=O)[C@@H]1CCCN1 — log beta (potentiometric titration; 37 °C, MAH-2 complex, together with: Fe(III)): 4.04

Some of these lines once more:
[11CH3]c1ccc2nc(C3CCC3)n(-c3ccc4[nH]ncc4c3)c2n1 — absorbed dose (extrapolated from mouse biodistribution; human female, uterus): 4 µSv/MBq
COC(=O)C(c1ccccc1Cl)N1CCC(SCC(=O)c2cccc(OC)c2)C(=CC(=O)O)C1 (centres unmarked) — measured concentration (LC-MS/MS; processed plasma extract; 50 ng/mL, 8 h, room temperature): 49.6 ± 7.7 ng/mL
CC(=O)N([O-])CCCCCNC(=O)CCC(=O)N([O-])CCCCCNC(=O)CCC(=O)N([O-])CCCCCN.[89Zr+4] — intact compound remaining (aqueous solution; 7 d, pH 7.2, 37 °C, transmetalation, together with: FeCl3 100-fold excess): 34%
